Assay results of several laboratories.
Lines come from different studies, so protocols differ. ± gives the spread as reported.
BIRC2 BIR3: Baculoviral IAP repeat-containing protein 2, BIR3 (BIRC2, Homo sapiens, UniProt Q13490)
Beta-lactamase CTX-M-27: Beta-lactamase CTX-M-27 (Escherichia coli, UniProt Q840M4)
Alpha-galactosidase: Alpha-galactosidase (Coffea arabica, UniProt Q42656)
CA6: Carbonic anhydrase 6 (CA6, Homo sapiens, UniProt P23280)

The Ki of `CN[C@@H](C)C(=O)N[C@H]1CN(C(=O)Cc2ccccc2)CC[C@H]2CC[C@@H](C(=O)NCc3ccc(C)cc3)N2C1=O` is reported as 0.004 µM (BIRC2 BIR3; ligand displacement, FP).
`O=C(O)c1ccc2nc(-c3ccc(OCCOc4ccc(-c5nc6ccc(C(=O)O)cc6[nH]5)cc4)cc3)[nH]c2c1` gave a Ki of 4.9 ± 1.6 µM (Dihydrofolate reductase type 2 (Escherichia coli, UniProt P00383); enzyme activity, inhibitor; pH 7).
With `COC(=O)[C@@H](CS)N1C(=O)c2ccc(N(C)C)cc2C1=O` the Ki was 0.044 ± 0.007 µM (Metallo-beta-lactamase VIM-2 (VIM-2, Escherichia coli, UniProt Q5U7L7); enzyme activity, inhibitor; Km 8 µM, added: chromacef 25 µM).
`CC(=O)NCC(=O)N[C@@H](CC(=O)O)C(=O)N[C@@H](Cc1ccc(O)cc1)C(=O)N[C@@H](CO)C(=O)N[C@@H](Cc1cnc[nH]1)C(=O)N[C@H]1CSSC[C@@H](C(=O)N[C@H](C(=O)N[C@@H](Cc2ccc(O)cc2)C(=O)N2CCC[C@H]2C(=O)N[C@@H](CC(=O)O)C(=O)N2CCC[C@H]2C(=O)N[C@@H](CCC(=O)O)C(=O)NCC(=O)NCC(=O)NCC(N)=O)[C@@H](C)O)NC(=O)[C@H](CCCCN)NC(=O)[C@H](Cc2c[nH]c3ccccc23)NC(=O)[C@H](Cc2c[nH]c3ccccc23)NC(=O)[C@@H]2CCCN2C(=O)[C@H](Cc2ccc(O)cc2)NC(=O)[C@H](Cc2ccc(O)cc2)NC(=O)[C@H](CCCNC(=N)N)NC(=O)[C@H](CC(C)C)NC(=O)[C@@H]2CCCN2C(=O)[C@H](CO)NC1=O` gave a Ki of 0.02 µM (Angiotensin-converting enzyme 2 (ACE2, Homo sapiens, UniProt Q9BYF1); enzyme activity, inhibitor, fluorescence).
For `CN[C@@H](C)C(=O)N[C@H]1CN(C(=O)Cc2ccccc2)CC[C@H]2CC[C@@H](C(=O)NCc3ccc(-c4ccccc4)cc3)N2C1=O`, the Ki was 0.167 µM (BIRC2 BIR3; ligand displacement, FP).
`O=C(Nc1cccc(-c2nn[nH]n2)c1)c1cc(-c2cncnc2)cc(C(F)(F)F)c1` gave a Ki of 4 µM (Beta-lactamase CTX-M-27; enzyme activity, inhibitor, absorbance; pH 7).
`C[C@@H]1O[C@@H](OCc2cc(O)c3c(c2)[C@H]([C@@H]2OC[C@@H](O)[C@H](O)[C@H]2O)c2cccc(O)c2C3=O)[C@H](O)[C@H](O)[C@H]1O` gave a Ki of 65.3 µM (Indoleamine 2,3-dioxygenase 1 (IDO1, Homo sapiens, UniProt P14902); uncompetitive inhibitor, Lineweaver-Burk plot).
`Cc1ccc(-c2nc3ccccc3[nH]2)cc1NC(=O)COc1ccccc1Cl` has a Ki of 2.99 µM (Protoporphyrinogen oxidase, mitochondrial (PPXII, Nicotiana tabacum, UniProt O24164); enzyme activity, inhibitor, fluorescence).
For `COc1ccc(Cn2c(=O)n(O)c(=O)c3ccccc32)cc1`, the Ki was 0.026 ± 0.002 µM (Flap endonuclease 1 (Homo sapiens, UniProt P39748); inhibitor; added: double-flap substrate DF1).
The Ki of `CCC[C@@H]1[C@H](O)[C@@H](O)[C@H](O)[C@@H](CO)N1C(=S)NCc1ccc(C(F)(F)F)cc1` is reported as greater than 2000 µM (Alpha-galactosidase; enzyme activity, competitive inhibitor; green coffee bean enzyme, optimal pH, added: p-nitrophenyl glycopyranoside).
With `COCCOc1cc2ncnc(Nc3cccc(-c4cn(CC(=O)Nc5cccc(S(N)(=O)=O)c5)nn4)c3)c2cc1OCCOC` the Ki was 0.099 µM (CA6; enzyme activity, inhibitor, stopped-flow).
The Ki of `O=C(O[C@H](CO)C(F)(F)F)N1C[C@@H]2[C@H](C1)[C@H]2c1ccn(-c2ccc(F)nc2)n1` is reported as 4.08 µM (Sodium-dependent noradrenaline transporter (SLC6A2, Homo sapiens, UniProt P23975); ligand displacement, radioligand).
`C[C@H]1CN(C(=O)c2nc(Nc3cc(C4CC4)[nH]n3)c3cc(Cl)ccc3n2)CCN1` has a Ki of 0.005 µM (Serine/threonine-protein kinase PAK 4 (PAK4, Homo sapiens, UniProt O96013); cell-free assay, inhibitor, TR-FRET).
`CNC(=O)C1CCN(c2cc(C)c(F)cc2NC(=O)c2ccc(-c3cc(O)ccc3C)c(C)c2)CC1` gave a Ki of 0.002 µM (Ephrin type-B receptor 1 (EPHB1, Homo sapiens, UniProt P54762); cell-free assay, TR-FRET).
For `Cc1cc(N)nc(C[C@@H]2CNC[C@@H]2OCCC/C=C/c2cccc(F)c2)c1`, the Ki was 77 µM (Nitric oxide synthase 3 (NOS3, Bos taurus, UniProt P29473); enzyme activity, inhibitor; pH 7.4).
`CCC[C@H]1CC[C@H](c2ccc(NC(=S)NC[C@@H]3[C@@H](O)[C@@H](O)[C@H]4[C@H](O)CCCN43)cc2)CC1` has a Ki of 1.92 µM (Alpha-mannosidase 2 (Homo sapiens, UniProt Q16706, Y354A); enzyme activity, inhibitor; added: Man-α-4MU substrate).
For `O=C(Nc1cccc(-c2nn[nH]n2)c1)c1cc(-c2nn[nH]n2)cc(C(F)(F)F)c1`, the Ki was 1.49 µM (Beta-lactamase CTX-M-27; enzyme activity, inhibitor, absorbance; pH 7).
`CN[C@@H](C)C(=O)N[C@H]1CN(C(=O)Cc2ccccc2)CC[C@H]2CC[C@@H](C(=O)NCc3ccc(Cl)cc3)N2C1=O` has a Ki of 0.0011 µM (BIRC2 BIR3; ligand displacement, FP).
`N=C(N)NCCC[C@@H](NC(=O)CCCCCNC(=O)c1ccc(-c2ccnc(N)n2)s1)C(=O)NCCCCCC(=O)N[C@H](CCCNC(=N)N)C(=O)N[C@H](CCCNC(=N)N)C(=O)N[C@H](CCCNC(=N)N)C(=O)N[C@H](CCCNC(=N)N)C(=O)N[C@H](CCCNC(=N)N)C(=O)N[C@H](CCCNC(=N)N)C(=O)N[C@H](CCCCN)C(N)=O` gave a Ki of 0.00227 µM (cGMP-dependent protein kinase 1 (PRKG1, Bos taurus, UniProt P00516); enzyme activity, inhibitor, radiometric).
`CN[C@@H](C)C(=O)N[C@H]1CN(C(=O)Cc2ccccc2)CC[C@H]2CC[C@@H](C(=O)NCc3cccc(Cl)c3)N2C1=O` has a Ki of 0.015 µM (BIRC2 BIR3; ligand displacement, FP).
The Ki of `CC(=O)N[C@@H](CC(=O)O)C(=O)N[C@H](C(=O)N1CCC[C@H]1C(=O)N[C@H](C=O)CC(=O)O)C(C)C` is reported as 0.0182 µM (Caspase-7 (CASP7, Homo sapiens, UniProt P55210); enzyme activity, inhibitor, fluorescence; pH 7).
For `CCC[C@H]1N[C@H](CO)[C@@H](O)[C@H](O)[C@H]1O`, the Ki was greater than 2000 µM (Alpha-galactosidase; enzyme activity, competitive inhibitor; green coffee bean enzyme, optimal pH, added: p-nitrophenyl glycopyranoside).
`CN[C@@H](C)C(=O)N[C@H]1CN(C(=O)Cc2ccccc2)CC[C@H]2CC[C@@H](C(=O)NCc3ccc(C(C)(C)C)cc3)N2C1=O` has a Ki of 0.236 µM (BIRC2 BIR3; ligand displacement, FP).
With `CCCCCCCC[C@@H]1[C@H](O)[C@@H](O)[C@H](O)[C@@H](CO)N1C(=S)NCCCC` the Ki was 508 µM (Alpha-galactosidase; enzyme activity, inhibitor, absorbance).
For `COCCOc1cc2ncnc(Nc3cccc(-c4cn([C@H]5C[C@H](n6cc(C)c(=O)[nH]c6=O)O[C@@H]5CO)nn4)c3)c2cc1OCCOC`, the Ki was 0.145 µM (Carbonic anhydrase 5A, mitochondrial (CA5A, Homo sapiens, UniProt P35218); enzyme activity, inhibitor, stopped-flow).
The Ki of `CC(C)C[C@H](NC(=O)N(CCCNC(=N)N)NC(=O)[C@H](Cc1ccc(O)cc1)NC(=O)CCCCCCC(=O)N[C@@H](Cc1ccc(O)cc1)C(=O)NN(CCCNC(=N)N)C(=O)N[C@@H](CC(C)C)C(=O)N[C@@H](CCCNC(=N)N)C(=O)N[C@@H](Cc1ccc(O)cc1)C(N)=O)C(=O)N[C@@H](CCCNC(=N)N)C(=O)N[C@@H](Cc1ccc(O)cc1)C(N)=O` is reported as 2.1 µM (Neuropeptide Y receptor type 5 (NPY5R, Homo sapiens, UniProt Q15761); ligand displacement, radioligand).
`CN[C@@H](C)C(=O)N[C@H]1CN(C(=O)Cc2ccccc2)CC[C@H]2CC[C@@H](C(=O)NCc3cccc(C(F)(F)F)c3)N2C1=O` has a Ki of 0.032 µM (BIRC2 BIR3; ligand displacement, FP).
`COCCOc1cc2ncnc(Nc3cccc(-c4cn(CC(=O)Nc5ccc(S(N)(=O)=O)cc5)nn4)c3)c2cc1OCCOC` has a Ki of 0.0397 µM (CA6; enzyme activity, inhibitor, stopped-flow).

For quick reference, copied from above:
`CNC(=O)C1CCN(c2cc(C)c(F)cc2NC(=O)c2ccc(-c3cc(O)ccc3C)c(C)c2)CC1` gave a Ki of 0.002 µM (Ephrin type-B receptor 1 (EPHB1, Homo sapiens, UniProt P54762); cell-free assay, TR-FRET).
For `Cc1cc(N)nc(C[C@@H]2CNC[C@@H]2OCCC/C=C/c2cccc(F)c2)c1`, the Ki was 77 µM (Nitric oxide synthase 3 (NOS3, Bos taurus, UniProt P29473); enzyme activity, inhibitor; pH 7.4).
`CCC[C@H]1CC[C@H](c2ccc(NC(=S)NC[C@@H]3[C@@H](O)[C@@H](O)[C@H]4[C@H](O)CCCN43)cc2)CC1` has a Ki of 1.92 µM (Alpha-mannosidase 2 (Homo sapiens, UniProt Q16706, Y354A); enzyme activity, inhibitor; added: Man-α-4MU substrate).
